Results pooled from the literature.
Compare with care: the assays were run in different laboratories. ± gives the spread as reported.

SMILES = Brc1ccc(NCc2cn(-c3ccccc3)nc2-c2ccc(OCc3ccccc3)cc2)cc1; assay = acetic acid-induced writhing; test system = mouse; conditions = oral, 20 mg/kg, 30 min pretreatment, writhes counted over 20 min, with: 0.6% acetic acid ip; inhibition = 29.6 ± 1.85%
SMILES = COC(=O)C1OC(Oc2c(-c3ccccc3)oc3cc(O)c(O)c(O)c3c2=O)C(O)C(O)C1O (stereo not drawn); assay = paw oedema; test system = mouse, carrageenan-induced paw oedema; conditions = oral, 5 mg/kg, 0 h; scale = baseline: 10 h; inhibition = 42.5%
SMILES = NS(=O)(=O)c1ccc(-n2cc(CNc3ccccc3Cl)c(-c3ccc(OCc4ccccc4)cc3)n2)cc1; assay = analgesic activity; test system = mouse, acetic acid writhing; conditions = oral, 20 mg/kg, 30 min before acetic acid; scale = baseline: vehicle; inhibition = 73.6%
SMILES = COc1c2c(cc3oc(COC4OC(CO)C(O)C(O)C4O)cc(=O)c13)OC(C(C)(C)O)C2 (stereo not drawn); assay = ear edema weight; test system = mouse, xylene ear edema; conditions = oral, 4 mg/kg; scale = baseline: vehicle; inhibition = 38%
SMILES = C=CC(=O)N1C[C@H](C)N(c2nc(OC[C@@]34CCCN3C[C@H](F)C4)nc3c(F)c(-c4ccc(F)c5sc(N)c(C#N)c45)c(C(F)(F)F)cc23)C[C@H]1C; assay = item: phospho-ERK; test system = mouse MIA PaCa-2 Matrigel plug; conditions = 30 mg/kg single dose, 24 h; inhibition = 83%
SMILES = CC1=C2C(=O)C3=CC(C)(C)N=C4CCCC2(CC(C)(C)N1)C34O (single isomer, unassigned; (+)); assay = acetic acid-induced writhing; test system = mouse; conditions = intraperitoneal, 1 mg/kg, 0.5 h, writhes counted over 30 min; inhibition = 78.6 ± 1.5%
SMILES = Nc1nc2cnc(C(=O)N3CCOC[C@@H]3c3ccc(C(F)(F)F)cc3)cc2c2c1COC2; assay = item: SDMA; test system = mouse, HCT-116 MTAP wild-type xenograft, tumour; conditions = oral, 100 mg/kg once daily, 4 doses, 4 h after last dose; scale = baseline: vehicle; inhibition = > 50%
SMILES = Nc1nc2cc(CC[C@H]3C[C@@H](n4ccc5c(N)ncnc54)[C@H](O)[C@@H]3O)ccc2cc1Br; assay = PRMT5-dependent methylation, item: SmD1/3-Me2; test system = mouse NCI-H1048 xenograft, tumour; conditions = 10 mg/kg daily, 6 days; inhibition = 93.7%
SMILES = NS(=O)(=O)c1ccc(-n2cc(CNc3ccc(F)cc3)c(-c3ccc(OCc4ccccc4)cc3)n2)cc1; assay = acetic acid-induced writhing; test system = mouse; conditions = oral, 20 mg/kg, 30 min pretreatment, writhes counted over 20 min, with: 0.6% acetic acid ip; inhibition = 65.1 ± 1.2%
SMILES = COc1c2c(cc3oc(C)cc(=O)c13)O[C@H](C(C)(C)O[C@@H]1O[C@H](CO)[C@@H](O)[C@H](O)[C@H]1O)C2; assay = ear edema weight; test system = mouse, xylene ear edema; conditions = oral, 2 mg/kg; scale = baseline: vehicle; inhibition = 9%
SMILES = CC1=NC(C)(C)CC2(C)CC3=NC(C)(C)CC(C)(O)C34OC124 (racemic); assay = acetic acid-induced writhing; test system = mouse; conditions = intraperitoneal, 0.04 mg/kg, 0.5 h, writhes counted over 30 min; inhibition = 49.7 ± 0.8%
SMILES = COc1c2c(cc3oc(CO)cc(=O)c13)O[C@H](C(C)(C)O)C2; assay = ear edema weight; test system = mouse, xylene ear edema; conditions = oral, 2 mg/kg; scale = baseline: vehicle; inhibition = 48%
SMILES = Clc1ccc(NCc2cn(-c3ccccc3)nc2-c2ccc(OCc3ccccc3)cc2)cc1; assay = acetic acid-induced writhing; test system = mouse; conditions = oral, 20 mg/kg, 30 min pretreatment, writhes counted over 20 min, with: 0.6% acetic acid ip; inhibition = 71.9 ± 2.33%
SMILES = CC(=O)[C@]12NC(C)(C)C[C@@]1(C)C(=O)C1=C2c2c(c3c4n2C(C)(C)CC2=C4[C@@]4(CC(C)(C)N[C@@](C)(C4)C2=O)CC3(C)C)C(=O)C(C)(C)N1 (racemic); assay = acetic acid-induced writhing; test system = mouse; conditions = intraperitoneal, 0.2 mg/kg, 0.5 h, writhes counted over 30 min; inhibition = 57.3 ± 1.7%
SMILES = Fc1ccccc1NCc1cn(-c2ccccc2)nc1-c1ccc(OCc2ccccc2)cc1; assay = acetic acid-induced writhing; test system = mouse; conditions = oral, 20 mg/kg, 30 min pretreatment, writhes counted over 20 min, with: 0.6% acetic acid ip; inhibition = 33.2 ± 2.37%
SMILES = CC(C)c1cnc(-c2cc(Cl)ccc2F)cc1Nc1ccncc1C(=O)NC(CO)CO; assay = item: pSMAD2; test system = 4T1 tumour-bearing mouse, tumour; conditions = 30 mg/kg twice daily, 0 to 8 h average; scale = baseline: vehicle; inhibition = 63%
SMILES = Cc1ccc(NCc2cn(-c3ccc(S(N)(=O)=O)cc3)nc2-c2ccc(OCc3ccccc3)cc2)cc1; assay = analgesic activity; test system = mouse, acetic acid writhing; conditions = oral, 20 mg/kg, 30 min before acetic acid; scale = baseline: vehicle; inhibition = 73.7%
SMILES = Cc1cc(NC(=O)[C@H](O)c2cc(F)cc(F)c2)ccc1-c1cnc(N)c(C(=O)NC(C)C)c1; assay = item: phospho-PERK; test system = mouse, pancreas; conditions = oral, 30 mg/kg, early after dose; inhibition = ~90%

Repeated from above:
SMILES = Nc1nc2cc(CC[C@H]3C[C@@H](n4ccc5c(N)ncnc54)[C@H](O)[C@@H]3O)ccc2cc1Br; assay = PRMT5-dependent methylation, item: SmD1/3-Me2; test system = mouse NCI-H1048 xenograft, tumour; conditions = 10 mg/kg daily, 6 days; inhibition = 93.7%
SMILES = CC1=NC(C)(C)CC2(C)CC3=NC(C)(C)CC(C)(O)C34OC124 (racemic); assay = acetic acid-induced writhing; test system = mouse; conditions = intraperitoneal, 0.04 mg/kg, 0.5 h, writhes counted over 30 min; inhibition = 49.7 ± 0.8%
SMILES = COc1c2c(cc3oc(COC4OC(CO)C(O)C(O)C4O)cc(=O)c13)OC(C(C)(C)O)C2 (stereo not drawn); assay = ear edema weight; test system = mouse, xylene ear edema; conditions = oral, 4 mg/kg; scale = baseline: vehicle; inhibition = 38%
